Results collected from several papers.
Lines come from different studies, so protocols differ. ± marks the error that the study gave.
UniProt Q15046, sequence (whole entry, looked up): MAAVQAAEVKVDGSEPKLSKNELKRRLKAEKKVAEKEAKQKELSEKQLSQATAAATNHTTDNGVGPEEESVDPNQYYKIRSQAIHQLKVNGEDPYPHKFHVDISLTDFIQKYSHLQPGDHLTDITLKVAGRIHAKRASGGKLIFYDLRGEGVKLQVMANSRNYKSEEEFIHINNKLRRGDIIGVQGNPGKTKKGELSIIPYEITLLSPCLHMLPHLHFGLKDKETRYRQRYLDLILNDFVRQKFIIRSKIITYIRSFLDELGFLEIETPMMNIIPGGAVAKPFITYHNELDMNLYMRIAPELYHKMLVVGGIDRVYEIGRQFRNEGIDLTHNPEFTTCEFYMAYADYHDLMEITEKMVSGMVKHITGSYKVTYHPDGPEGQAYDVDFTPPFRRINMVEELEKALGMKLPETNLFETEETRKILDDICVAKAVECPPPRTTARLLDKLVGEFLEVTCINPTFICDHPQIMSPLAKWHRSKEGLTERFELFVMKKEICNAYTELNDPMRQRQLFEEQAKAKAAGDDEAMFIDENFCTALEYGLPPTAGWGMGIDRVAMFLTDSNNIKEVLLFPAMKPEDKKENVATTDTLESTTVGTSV

Structure (SMILES)	tested on	test	test system	conditions	scale	quantity	result
CO[C@H]1C[C@@H]2CC[C@@H](C)[C@@](O)(O2)C(=O)C(=O)N2CCCC[C@H]2C(=O)O[C@H]([C@H](C)C[C@@H]2CC[C@@H](OC(=O)NCCOCCOCCOCCOCCOCCOCCOCCOCCC(=O)N3CCc4cc(Cn5nc(-c6ccc7oc(N)nc7c6)c6c(N)ncnc65)ccc4C3)[C@H](OC)C2)C[C@@H](O)[C@H](C)/C=C(\C)[C@@H](O)[C@@H](OC)C(=O)[C@H](C)C[C@H](C)/C=C/C=C/C=C/1C	–	–	patients with advanced solid tumours	intravenous, 1.6 mg/3 mg weekly, grade ≥3	–	incidence of Headache TEAE	0%
C[C@H]1CN(c2n[nH]c3nc(N[C@H]4CC[C@H](NS(=O)(=O)CCC(F)(F)F)CC4)ncc23)CCO1	Lysine--tRNA ligase (KARS1, Homo sapiens, UniProt Q15046)	Kinobeads competition, refers to: KARS	–	0.16 µM, unit not given	baseline: vehicle	remaining binding	0.95
O=C(O)C[C@H](NC(=O)[C@H](CC(=O)O)NC(=O)[C@H](CC(=O)O)NC(=O)[C@H](CC(=O)O)NC(=O)[C@H](CC(=O)O)NC(=O)[C@H](CC(=O)O)NC(=O)[C@H](CC(=O)O)NC(=O)[C@H](CC(=O)O)NC(=O)[C@H](CC(=O)O)NC(=O)[C@H](CC(=O)O)NC(=O)[C@H](CC(=O)O)NC(=O)[C@H](CCCCNC(=O)c1ccc(C(=O)NCCOCCOB2BBBBBB3BBBB3B2)cc1)NC(=O)CN1CCN(CC(=O)O)CCN(CC(=O)O)CCN(CC(=O)O)CC1)C(=O)O [gallium-67 labelled]	–	–	ddY male mice, brain	intravenous, 37 kBq, 3 h	–	tissue uptake	0.01 %ID/g
COc1cccc2c1C(=O)c1c(O)c3c(c(O)c1C2=O)C[C@@](O)(C(=O)CO)C[C@@H]3O[C@H]1C[C@H](NC(=O)[C@@H]2CCCN2C(=O)CNC(=O)[C@H](CC(C)C)NC(=O)[C@H](C)NC(=O)CP(=O)(O)O)[C@H](O)[C@H](C)O1	–	–	healthy mice, plasma	intravenous, 23.6 mg/kg, extrapolated to time zero	–	Cmax	207 µM
CCCCCCCCCC(=O)N[C@@H](Cc1c[nH]c2ccccc12)C(=O)N[C@H](CC(N)=O)C(=O)N[C@@H](CC(=O)O)C(=O)N[C@@H]1C(=O)NCC(=O)N[C@@H](CCCNC(=O)CCC(=O)N2Cc3ccccc3-c3c(nnn3CCC[C@H](NC(=O)CCCCC[N+]3=C(C=CC4=CC(=CC=C5N(C)c6ccccc6C5(C)C)CCC4)C(C)(C)c4ccccc43)C(=O)NCCCCNC(=O)CCC(=O)N3Cc4ccccc4C#Cc4ccccc43)-c3ccccc32)C(=O)N[C@@H](CC(=O)O)C(=O)N[C@H](C)C(=O)N[C@@H](CC(=O)O)C(=O)NCC(=O)N[C@H](CO)C(=O)N[C@@H]([C@H](C)CC(=O)O)C(=O)N[C@@H](CC(=O)c2ccccc2N)C(=O)O[C@@H]1C	–	–	mouse plasma	1 µM, up to 240 min, pH 7.4, 37 °C	–	half-life	> 4 h
C=C1CC[C@H](OCCCNC(=O)CCOCCOCCOCCOCCOCCOCCOCCOCCOCCOCCOCCOCCOCCOCCOCCOCCOCCOCCOCCOCCOCCOCCOCCOCCOCCOCCOCCOCCOCCOCCOCCOCCOCCOCCOCCOCCNC(=O)CCN2C(=O)CC(SC[C@H](NC(=O)[C@H](CCCNC(=N)N)NC(=O)[C@@H]3CCCN3C(=O)[C@H](CCC(N)=O)NC(=O)[C@H](CC(C)C)NC(=O)[C@H](CCCCN)NC(=O)[C@H](C)NC(=O)[C@@H]3CCCN3C(=O)[C@@H]3CCCN3C(=O)[C@H](CCCCN)NC(=O)[C@H](CCCCN)NC(=O)[C@H](CO)NC(=O)[C@H](CCC(=O)O)NC(=O)[C@H](CCCCN)NC(=O)[C@H](CCCNC(=N)N)NC(=O)[C@H](CCC(N)=O)NC(=O)[C@H](CCC(N)=O)NC(=O)[C@@H](NC(=O)[C@H](CCCNC(=N)N)NC(=O)[C@H](CCC(N)=O)NC(=O)[C@H](Cc3c[nH]cn3)NC(=O)[C@H](CCC(=O)O)NC(=O)[C@@H]3CCCN3C(=O)[C@H](CO)NC(=O)[C@H](CC(C)C)NC(=O)[C@H](Cc3ccccc3)NC(=O)[C@H](CNC(=O)CCCCCCC)NC(=O)[C@H](CO)NC(=O)CN)C(C)C)C(=O)O)C2=O)C/C1=C/C=C1\CCC[C@]2(C)[C@@H]([C@H](C)CCCC(C)(C)O)CC[C@@H]12 (stereo partly drawn)	–	allometric scaling	mouse	–	–	half-life	~6.5 h
Cc1ccccc1NC(=O)Nc1ccc(CC(=O)N[C@@H](CCCCNC(=O)/C=C/c2cccnc2)C(=O)N[C@@H](CCCC(=O)O)C(=O)NC2(C(=O)NCCOCCOCCOCCOCC(=O)N[C@@H](CCCCNC(=S)Nc3ccc(CCCN(CCN4CCN(CP(=O)(O)O)CCN(CP(=O)(O)O)CC4)CC(=O)O)cc3)C(N)=O)CCCCC2)cc1 [gallium-68 labelled]	–	–	human serum	2 h, 37 °C, 68Ga-labelled	–	dissociation	< 5%
C[C@@H](O)[C@@H](CO)NC(=O)[C@@H](CCCNC(=N)N)NC(=O)[C@@H]1CCCN1C(=O)[C@@H]1CSSC[C@H](NC(=O)[C@H](Cc2ccccc2)NC(=O)CN2CCN(CC(=O)O)CCN(CC(=O)O)CCN(CC(=O)O)CC2)C(=O)N[C@@H](Cc2ccc(O)cc2)C(=O)N[C@@H](Cc2ccccc2)C(=O)N[C@@H](CCC(N)=O)C(=O)N[C@@H](CC(N)=O)C(=O)N1 [gallium-68 labelled]	–	–	Wistar rat, healthy, Parotid gland	intravenous, 8 MBq, 60 min, mean	–	tissue uptake	0.17 %ID/g
COc1cc2c(Oc3ccc4[nH]c(C)cc4c3F)ccnc2cc1OCC1(N)CC1	–	–	paediatric recurrent refractory sarcoma	8 mg	–	grade 3 Epistaxis	0%
CC[C@H](C)[C@@H]1NC(=O)[C@@H]2CCCN2C(=O)[C@H](CC(C)C)NC(=O)[C@H](CC(C)C)NC(=O)CNC(=O)[C@@H](NC(=O)[C@@H](NC(=O)[C@H](CC(=O)O)NC(=O)CNC(=O)[C@@H](NC(=O)[C@H](C)NC(=O)CNC(=O)[C@H](CCCCN)NC(=O)[C@H](CC(C)C)NC(=O)[C@H](CC(C)C)NC(=O)[C@H](CCCCN)NC(=O)CNC(=O)[C@@H](NC(=O)[C@@H](N)CC(C)C)C(C)C)C(C)C)C(C)C)CSSC[C@@H](C(=O)O)NC1=O	–	RNA-seq, refers to: Tap2	mouse, traumatic brain injury model, frontal cortex and hippocampus	dose not given	baseline: TBI alone	log2 fold change	-1.11
CC[C@H](C)[C@H](NC(=O)[C@H](Cc1ccccc1)NC(=O)[C@H](CCC(=O)O)NC(=O)[C@H](CCCNC(=N)N)NC(=O)[C@H](C)NC(=O)[C@H](C)NC(=O)[C@H](CCC(N)=O)NC(=O)[C@H](CCC(=O)O)NC(=O)[C@H](CCC(=O)O)NC(=O)[C@H](CC(C)C)NC(=O)[C@H](Cc1ccc(O)cc1)NC(=O)[C@H](CO)NC(=O)[C@H](CO)NC(=O)[C@@H](NC(=O)[C@H](CC(=O)O)NC(=O)[C@H](CO)NC(=O)[C@@H](NC(=O)[C@H](Cc1ccccc1)NC(=O)[C@@H](NC(=O)CNC(=O)[C@H](CCC(=O)O)NC(=O)[C@H](C)NC(=O)CCc1c[nH]cn1)[C@@H](C)O)[C@@H](C)O)C(C)C)C(=O)N[C@@H](C)C(=O)N[C@@H](Cc1c[nH]c2ccccc12)C(=O)N[C@@H](CC(C)C)C(=O)N[C@H](C(=O)N[C@@H](CCCNC(=N)N)C(=O)NCC(=O)N[C@@H](CCCNC(=N)N)C(=O)N[C@@H](CCCCNC(=O)COCCOCCNC(=O)COCCOCCNC(=O)CC[C@H](NC(=O)CCCCCCCCCCCCCCCCC(=O)O)C(=O)O)C(=O)NCC(=O)NCC(=O)N[C@@H](CO)C(=O)N[C@@H](CCCCNc1c(NCCCCCN(O)C(=O)CCC(=O)NCCCCCN(O)C(=O)CCC(=O)NCCCCCN(O)C(C)=O)c(=O)c1=O)C(=O)O)C(C)C [zirconium-89 labelled]	–	–	rat, bone marrow	sc, 3 nmol/kg, 72 h, ex vivo	–	tissue uptake	0.38 %ID/g
N=C(N)NCCC[C@@H]1NC(=O)[C@H](CCCCNC(=O)c2ccc(CNC34CNCCNCC(N)(CNCCNC3)CNCCNC4)cc2)NC(=O)[C@@H](Cc2ccc(O)cc2)NC(=O)[C@H](CC(=O)O)NC(=O)CNC1=O [copper-64 labelled]	–	ex vivo biodistribution	male athymic nude mouse, PC-3 tumour, muscle	7.4 MBq, 48 h	–	tissue uptake	0.34 ± 0.07 %ID/g

A few entries again:
Structure (SMILES)	tested on	test	test system	conditions	scale	quantity	result
CC[C@H](C)[C@@H]1NC(=O)[C@@H]2CCCN2C(=O)[C@H](CC(C)C)NC(=O)[C@H](CC(C)C)NC(=O)CNC(=O)[C@@H](NC(=O)[C@@H](NC(=O)[C@H](CC(=O)O)NC(=O)CNC(=O)[C@@H](NC(=O)[C@H](C)NC(=O)CNC(=O)[C@H](CCCCN)NC(=O)[C@H](CC(C)C)NC(=O)[C@H](CC(C)C)NC(=O)[C@H](CCCCN)NC(=O)CNC(=O)[C@@H](NC(=O)[C@@H](N)CC(C)C)C(C)C)C(C)C)C(C)C)CSSC[C@@H](C(=O)O)NC1=O	–	RNA-seq, refers to: Tap2	mouse, traumatic brain injury model, frontal cortex and hippocampus	dose not given	baseline: TBI alone	log2 fold change	-1.11
